{"data": "Assay results collected from several papers", "note": "Each line is one published result; not all experiments were run side by side. ± gives the spread as reported."}
{"Compound": "COc1cc(OC)cc(C2=C3C(C)=C(I)C(C)=[N+]3[B-](F)(F)n3c(/C=C/c4c[nH]c5ccccc45)c(I)c(C)c32)c1", "system": "dichloromethane", "measurement": "Stokes shift", "result": "1050 cm⁻¹"}
{"Compound": "[64Cu+2].c1cnc(CNCc2ccc(CN3CCCN4CCNCCCN(CC4)CC3)cc2)nc1", "target or system": "CXCR4", "system": "NOD/SCID mouse, U87 and U87-stb-CXCR4 xenografts, heart", "conditions": "iv, 120 min, ex vivo", "measurement": "tissue uptake", "result": "1.81 ± 0.19 %ID/g"}
{"Compound": "COC(=O)CN1CCN(CC(=O)OC)CCN(Cc2cc(-c3nc4ccccc4s3)cc(OC)c2O)CC1", "assay": "UV-Vis pH titration", "conditions": "25 °C, ionic strength 0.1 M NaCl", "measurement": "pKa4", "result": 11.3}
{"Compound": "CCN(CC)c1ccc2c(-c3ccc(S(=O)(=O)NCCNC(=O)CN4CCN(CC(=O)[O-])CCN(CC(=O)O)CCN(CC(=O)[O-])CC4)cc3S(=O)(=O)[O-])c3ccc(=[N+](CC)CC)cc-3oc2c1.[64Cu+2]", "assay": "microPET imaging", "system": "athymic nude mice, U-87 MG glioma xenograft", "conditions": "250 µCi, 24 h post-injection", "measurement": "tumour uptake", "result": "4.75 ± 0.56 %ID/g"}
{"Compound": "O=c1nc(NO)ccn1[C@@H]1O[C@H](CO)[C@@H](O)[C@H]1O", "assay": "Western blot, item: CYP2C19", "system": "rat, arthritis model, liver", "conditions": "oral, 80 mg/kg twice daily, 5 days", "scale": "reference: control group", "measurement": "protein level", "result": "0.9 fold"}
{"Compound": "COc1cc2c(cc1OC)CN(CCCCn1ccc3cc(OCC[18F])ccc31)C2", "system": "male CD-1 mouse, pancreas", "conditions": "intravenous, 280 kBq, 1 h", "measurement": "tracer uptake", "result": "39.7 %ID/g"}
{"Compound": "O=C1c2sc(-c3ccc(N4CCC(F)C4)nc3F)nc2CCN1c1cccnc1 (stereo not drawn)", "assay": "PET imaging", "system": "rhesus monkey, whole brain", "conditions": "intravenous bolus", "measurement": "time to peak uptake", "result": "5.5 min"}
{"Compound": "COc1cc(N(C)CCN(C)C)c(NC(=O)CCSCC(NC(C)=O)C(=O)O)cc1Nc1nccc(-c2cn(C3CC3)c3ccccc23)n1 (stereo not drawn)", "assay": "radio-HPLC", "system": "human, feces", "conditions": "dose not given, 0 to 48 h, sample holds 45.32% dose", "scale": "reference: sample radioactivity", "measurement": "share of radioactivity", "result": "2.45%"}
{"Compound": "C[N+](C)(C)CCO.O=C(O)[C@@H](O)Cc1ccccc1.O=C([O-])[C@@H](O)Cc1ccccc1", "assay": "thermogravimetric analysis", "conditions": "5% mass loss, nitrogen", "measurement": "decomposition temperature", "result": "160 °C"}
{"Compound": "CC(=O)N[C@H](CCCCN)C(=O)N[C@H](CC(C)C)C(=O)N[C@H](CCCCN)C(=O)N[C@H](CO)C(=O)N[C@H](CC(C)C)C(=O)N[C@H](CC(C)C)C(=O)N[C@H](CCCCN)C(=O)N[C@@H](C(=O)N[C@H](CC(C)C)C(=O)N[C@H](CO)C(=O)N[C@H](CCCCN)C(=O)N[C@H](C)C(=O)N[C@H](CCCCN)C(=O)N[C@H](CCCCN)C(=O)N[C@H](CCCCN)C(=O)N[C@H](CCCCN)C(=O)N[C@H](CC(C)C)C(=O)N[C@H](CCCCN)C(=O)N[C@@H](C(=O)N[C@H](CC(C)C)C(=O)N[C@H](CC(C)C)C(=O)N[C@H](CCCCN)C(=O)N[C@H](C)C(=O)N[C@H](CC(C)C)C(=O)N[C@H](CO)C(=O)N[C@H](CCCCN)C(N)=O)[C@H](C)O)[C@H](C)O", "assay": "circular dichroism", "system": "benign aqueous buffer", "conditions": "pH 7.0, 5 °C, at 222 nm", "scale": "negative is more helical", "measurement": "mean residue molar ellipticity", "result": "3550 deg cm2/dmol"}
{"Compound": "[64Cu+2].c1ccc(CNCc2ccc(CN3CCCN4CCNCCCN(CC4)CC3)cc2)nc1", "target or system": "CXCR4", "system": "NOD/SCID mouse, U87 and U87-stb-CXCR4 xenografts, kidney", "conditions": "iv, 480 min, ex vivo", "measurement": "tissue uptake", "result": "24.8 ± 1.12 %ID/g"}
{"Compound": "O=C(CCc1ccc(CNC(C(=O)OC2CCCC2)C2CCCCC2)cn1)NO (stereo not drawn)", "system": "human, plasma", "conditions": "oral, 10 mg single dose, geometric mean", "measurement": "AUC(0-t)", "result": "32.3 ng·h/mL"}
{"Compound": "COC(=O)C(c1ccccc1Cl)N1CCC(SCC(=O)c2cccc(OC)c2)C(=CC(=O)O)C1 (mixture of isomers)", "assay": "HPLC-MS/MS", "system": "feline citrate plasma", "conditions": "100 ng/mL, 24 h, 4 °C, storage stability", "measurement": "deviation from nominal", "result": "-2%"}
{"Compound": "COc1cc(-c2nc3ccccc3s2)cc(CN2Cc3cccc(n3)CN(C)Cc3cccc(n3)C2)c1O", "assay": "UV-vis spectrophotometric titration, item: HL/L- equilibrium", "system": "MeOH/water with NaCl", "conditions": "50 µM, room temperature, NaCl 0.1 M, MeOH ≤20% v/v", "measurement": "pKa4", "result": 9.6}
{"Compound": "CCCC[C@@H]1NC(=O)[C@@H](NC(=O)[C@H](CCC(=O)O)NC(=O)CNC(=O)CN2CCN(CC(=O)O)CCN(CC(=O)O)CCN(CC(=O)O)CC2)CCCCNC(=O)C[C@@H](C(N)=O)NC(=O)[C@H](C(C)C)NC(=O)[C@@H]2CCCN2C(=O)[C@H](CCCNC(=N)N)NC(=O)CNC(=O)[C@H](Cc2c[nH]c3ccccc23)NC(=O)[C@H](CCCNC(=N)N)NC(=O)[C@@H](Cc2ccccc2)NC(=O)[C@H](Cc2c[nH]cn2)NC(=O)[C@H](CCC(=O)O)NC1=O [gallium-67 labelled]", "system": "C57 mice with B16/F1 melanoma, lung", "conditions": "intravenous, 0.5 h", "measurement": "tissue uptake", "result": "1.44 ± 0.47 %ID/g"}
{"Compound": "CN1C(=O)[C@@H](Cc2ccc(O)c(I)c2)NC(=O)CNC(=O)[C@H](Cc2ccc3ccccc3c2)NC(=O)[C@H](CCCNC(=N)N)NC(=O)[C@H]1CCCNC(=O)c1ccc(CNC(=O)CN2CCN(CC(=O)O)CCN(CC(=O)O)CC2)cc1 [fluorine-18 labelled]", "system": "CB17 SCID mouse, female, Daudi lymphoma xenograft", "conditions": "intravenous, 300 kBq, 1 h", "scale": "reference: tumour over blood", "measurement": "tissue ratio", "result": "7 ± 1.2"}
{"Compound": "CC(C)C[C@@H]1NC(=O)[C@@H](Cc2ccccc2)NC(=O)[C@H](CCN)NC(=O)[C@@H](NC(=O)[C@H](CN)NC(=O)[C@@H](NC(=O)C(CCN)c2ccc3ccccc3c2)[C@@H](C)O)CCNC(=O)[C@H]([C@@H](C)O)NC(=O)[C@H](CCN)NC(=O)[C@H](CCN)NC1=O (stereo partly drawn)", "system": "CD-1 mouse male, kidney", "conditions": "subcutaneous, 17.2 mg/kg, 4 h", "measurement": "tissue concentration", "result": "548000 ng/g"}
{"Compound": "CCCC(CCC)NC(=O)c1ccc(OC)c(O)c1", "assay": "LC-MS extracted ion chromatogram", "system": "Sprague-Dawley rat, male and female, pooled plasma", "conditions": "oral, 200 mg/kg, 1 h", "measurement": "peak area", "result": "1.61e+07 cps"}
{"Compound": "O=C(O)[C@@H]1C[C@@H](O)CN1C(=O)[C@@H]1CCCN1", "assay": "potentiometric titration", "conditions": "25 °C, MA2 complex, together with: Fe(III)", "measurement": "log beta", "result": 23.8}
{"Compound": "O=C([O-])CN1CCN(CC(=O)[O-])CCN(CC(=O)NCCc2ccc3c(c2)C2C=CCC2C(c2cc4c(cc2Br)OCO4)N3)CCN(CC(=O)[O-])CC1.[111In+3] (stereo not drawn)", "system": "mice with Hec50 tumour xenograft", "conditions": "4 h", "scale": "reference: tumour over blood", "measurement": "tumour to tissue ratio", "result": 2.08}
{"Compound": "CCOc1ccc2c(c1)C(C)=CC(C)(C)N2c1cc(OCC)cc2c1NC(C)(C)C=C2C", "assay": "LC-MS/MS", "system": "piglets, liver", "conditions": "oral, 50 mg/kg feed of ethoxyquin, 42 days, after glucuronidase", "measurement": "residue concentration", "result": "8.2 ± 3 ng/g"}
{"Compound": "Cn1c(=O)oc2ccc(-c3ccc(CC(C#N)NC(=O)C4CNCCCO4)c(F)c3)cc21 (stereo not drawn)", "system": "human", "conditions": "oral, 10 mg once daily, TEAE, multiple ascending dose", "measurement": "urine WBC positive incidence", "result": "0%"}
{"Compound": "NC12CNCCNCC(NCc3ccc(CNC(=O)CCCC(=O)NCc4ccc(-c5nncnn5)cc4)cc3)(CNCCNC1)CNCCNC2.[64Cu+2]", "assay": "OLINDA dosimetry", "system": "pancreas", "conditions": "24 h pretargeting interval, together with: huA33-TCO pretargeting", "measurement": "mean absorbed dose", "result": "0.0391 rad/mCi"}
{"Compound": "C=C(c1cc(F)c(C(=O)O)c(F)c1)c1cc2c(cc1C)C(C)(C)CCC2(C)C", "system": "Sprague-Dawley rat, male", "conditions": "oral, 100 mg/kg, 9 h, sesame oil vehicle", "measurement": "blood triglycerides", "result": "221 ± 99.6 mg/dL"}
{"Compound": "CC(C)(O)c1ncc([S@](N)(=O)=NC(=O)Nc2c3c(cc4c2CCC4)CCC3)s1", "system": "healthy human volunteers, plasma", "conditions": "oral, 300 mg single dose, fasted, spray-dried dispersion", "measurement": "dose-normalised AUC(0-t)", "result": "1090 ng·h/mL/mg"}
{"Compound": "COCCOCCOCCOCCC(=O)NCc1cc(CNC(=O)CCOCCOCCOCCOC)cc(-c2cc3cc4nc(c(-c5ccc(CCC(=O)O)cc5)c5[nH]c(cc6nc(c(OC)c2[nH]3)CC6(C)C)cc5-c2cc(CNC(=O)CCOCCOCCOCCOC)cc(CNC(=O)CCOCCOCCOCCOC)c2)CC4(C)C)c1", "system": "water with 5% DMF", "conditions": "room temperature", "measurement": "Qy emission maximum", "result": "731 nm"}
{"Compound": "CCC(C)n1c(C(=O)Nc2cnc(C(=O)NC)n(CC(C)C)c2=O)ncc(NC(=O)c2ncc(NC(=O)c3ccccc3)c(=O)n2Cc2ccc(OC)cc2)c1=O (stereo not drawn)", "assay": "HPLC", "system": "Tween 20/ethanol/phosphate buffer", "conditions": "24 h, pH 7.4, 37 °C", "measurement": "decomposition", "result": "0.7%"}
{"Compound": "COC(=O)C(c1ccccc1Cl)N1CCC(SCC(=O)c2cccc(OC)c2)C(=CC(=O)O)C1 (stereo not drawn)", "assay": "LC-MS/MS", "system": "human plasma", "conditions": "2 ng/mL, 8 h, room temperature", "measurement": "measured concentration", "result": "2.2 ± 0.4 ng/mL"}
{"Compound": "CNC(=O)N[C@]1(C)CCC[C@@]2(C)C3CC[C@@]4(C)C[C@]3(CCC21)CC4=O (single isomer, unassigned)", "system": "processed rat plasma", "conditions": "1.5 ng/mL, 24 h, 4 °C, autosampler stability", "measurement": "measured concentration", "result": "1.46 ± 0.04 ng/mL"}
{"Compound": "COc1ccc([C@@H]2CC(=O)c3c(O)cc(O[C@@H]4O[C@H](CO[C@@H]5O[C@@H](C)[C@H](O)[C@@H](O)[C@H]5O)[C@@H](O)[C@H](O)[C@H]4O)cc3O2)cc1O", "system": "rat plasma", "conditions": "0.48 ng/mL, three freeze-thaw cycles", "measurement": "measured concentration", "result": "0.44 ± 0.02 ng/mL"}
{"Compound": "CCCC[C@H](NC(=O)[C@H](CC(C)C)N(C)C(=O)CNC(=O)[C@@H](NC(=O)[C@H](Cc1ccccc1)NC(=O)[C@H](CCCCN)NC(=O)[C@@H](N)CC(=O)O)C(C)C)C(N)=O", "system": "anaesthetised Sinclair minipigs", "conditions": "SC, 30 µg/kg", "scale": "reference: baseline", "measurement": "heart rate change", "result": "-5.21 ± 3.22%"}
{"Compound": "CCCC[C@H](NC(C)=O)C(=O)N[C@H]1CC(=O)NCCCC[C@@H](C(=O)N[C@@H](C(=O)N2CCC[C@@H]2C(N)=O)C(C)C)NC(=O)[C@H](Cc2c[nH]c3ccccc23)NC(=O)[C@H](CCCN=C(N)N)NC(=O)[C@@H](Cc2ccc3ccccc3c2)NC(=O)[C@@H]2CCCN2C1=O", "system": "Beagle dog, both sexes, plasma", "conditions": "subcutaneous, once daily, 2.25 mg/kg, day 28", "measurement": "Cmax", "result": "3600 ± 300 ng/mL"}
{"Compound": "Cc1cnc(Nc2ccc(OCCOc3ccc(/N=N/c4ccc(C(=O)NCCC(=O)O)cc4)cc3C(=O)O)cc2)nc1Nc1cccc(S(=O)(=O)NC(C)(C)C)c1", "system": "C57BL/6 mouse, female, plasma", "conditions": "oral, 10 mg/kg, 0.5 to 24 h", "measurement": "concentration", "result": "< 2 ng/mL"}
